Published values from different studies.

| Structure (SMILES) | tested on | assay | system | conditions | measurement | result |
| --- | --- | --- | --- | --- | --- | --- |
| O=S(=O)(Nc1nccs1)c1ccc(N=NN(O)c2ccccc2)cc1 |  | DPPH scavenging, absorbance |  | 120 µg/mL | inhibition | 32.9% |
| O=C(Nc1ccc(Oc2nnc(-c3ccc(Cl)cc3)c3ccccc23)cc1)c1ccccc1 | MCF7 | cell growth or viability, MTT |  | 0.312 µM | cell death | 95.3% |
| CCCN(O)N=Nc1ccc(S(=O)(=O)Nc2onc(C)c2C)cc1 |  | DPPH scavenging, absorbance |  | 300 µg/mL | inhibition | 33.4% |
| Cc1cc(C)c(C#N)c(SCC(=O)c2ccc(Cl)cc2)n1 | Leishmania infantum | parasite growth | mouse Macrophage | intracellular, amastigote | EC50 | > 64 µM |
| Cc1cccc(N(O)N=Nc2ccc(S(=O)(=O)Nc3cc(C)on3)cc2)c1 |  | DPPH scavenging, absorbance |  | 60 µg/mL | inhibition | 30.2% |
| COc1ccccc1C(=O)CSc1nc(C)cc(C)c1C#N | Trypanosoma brucei | parasite growth, resazurin |  |  | EC50 | > 64 µM |
| C=C[C@@]1(C)C=C2CC[C@@H]3[C@](C)(CCC[C@@]3(C)C(=O)O)[C@H]2CC1 | Helicobacter pylori | microbial growth, broth dilution |  | 31.25 µg/mL | inhibition | 100% |
| CN(Cc1ccc(C2(C(F)(F)F)CC2)cc1)Cc1cccc2ccccc12 | Trichophyton mentagrophytes | microbial growth, disc diffusion | ATCC18748 | 0.00025 µg/mL, 72 h | inhibition zone | 0 mm |
| CC(=NNC(N)=S)c1ccc(Nc2nnc(-c3ccc(Cl)cc3)c3ccccc23)cc1 | HepG2 | cell growth or viability, MTT |  | 0.625 µM | cell death | 92.4% |
| COc1cc(-c2cc(=O)c3c(O)cc(O)cc3o2)ccc1O | Helicobacter pylori | microbial growth, broth dilution |  | 0.24 µg/mL | inhibition | 6.83% |
| CCN(O)N=Nc1ccc(S(=O)(=O)Nc2cc(C)on2)cc1 |  | DPPH scavenging, absorbance |  | 240 µg/mL | inhibition | 38.7% |
| COc1ccc(Cn2cnc3ccc(-c4ccc(NC(=O)c5ccccc5)nc4)cc3c2=O)cc1 | HCC827 | cell growth or viability, CCK-8 |  | 72 h | IC50 | > 10 µM |
| CCCN(O)N=Nc1ccc(S(=O)(=O)Nc2nccs2)cc1 |  | DPPH scavenging, absorbance |  | 120 µg/mL | inhibition | 14.1% |
| COc1cc([N+](=O)[O-])ccc1NC(=O)Cn1cc(COc2ccc(-c3nc4ccccc4c(=O)n3Nc3ccc([N+](=O)[O-])cc3[N+](=O)[O-])cc2OC)nn1 |  | DPPH scavenging, absorbance |  | 100 µM | inhibition | 20.9% |
| CC(=O)Nc1ccc(Oc2nnc(-c3ccc(Cl)cc3)c3ccccc23)cc1 | HepG2 | cell growth or viability, MTT |  | 1.25 µM, 24 h | viability | 7.13% |
| CC[C@H]1OC(=O)[C@H](C)[C@@H](O[C@H]2C[C@@](C)(OC)[C@@H](O)[C@H](C)O2)[C@H](C)[C@@H](O[C@@H]2O[C@H](C)C[C@H](N(C)C)[C@H]2O)[C@](C)(OC)C[C@@H](C)C(=O)[C@H](C)[C@@H](O)[C@]1(C)O | Helicobacter pylori | microbial growth, broth dilution |  | 15.63 µg/mL | inhibition | 100% |
| CCCn1cnc2ccc(-c3ccc(NC(=O)CNC(C)C)nc3)cc2c1=O | NCI-H1975 | cell growth or viability, CCK-8 |  | 72 h | IC50 | > 10 µM |
| CC(=NNC(=O)c1ccccc1Br)c1ccc(Nc2nnc(-c3ccc(Cl)cc3)c3ccccc23)cc1 | HepG2 | cell growth or viability, MTT |  | 1.25 µM, 24 h | viability | 11.9% |
| CCN(O)N=Nc1ccc(S(=O)(=O)Nc2nccs2)cc1 |  | DPPH scavenging, absorbance |  | 120 µg/mL | inhibition | 14.9% |
| CC(=NNC(=O)c1ccncc1)c1ccc(Nc2nnc(-c3ccc(Cl)cc3)c3ccccc23)cc1 | HepG2 | cell growth or viability, MTT |  | 10 µM | cell death | 94.6% |
| Cc1ccc(N(O)N=Nc2ccc(S(=O)(=O)Nc3cc(C)on3)cc2)cc1 |  | DPPH scavenging, absorbance |  | 20 µg/mL | inhibition | 13% |
| CC(=NNC(=O)c1ccccc1Cl)c1ccc(Nc2nnc(-c3ccc(Cl)cc3)c3ccccc23)cc1 | HepG2 | cell growth or viability, MTT |  | 10 µM | cell death | 96.8% |
| Fc1cccc(Nc2nccc(NC3CCCCC3)n2)c1 | BJ | cell growth or viability, ATP luminescence |  | 72 h | EC50 | > 20 µM |

Some of these lines once more:
| Structure (SMILES) | tested on | assay | system | conditions | measurement | result |
| --- | --- | --- | --- | --- | --- | --- |
| COc1ccccc1C(=O)CSc1nc(C)cc(C)c1C#N | Trypanosoma brucei | parasite growth, resazurin |  |  | EC50 | > 64 µM |
| CCN(O)N=Nc1ccc(S(=O)(=O)Nc2nccs2)cc1 |  | DPPH scavenging, absorbance |  | 120 µg/mL | inhibition | 14.9% |
